Results pooled from the literature.
Every numbered part comes from another study and shows a few of its results, in no order. Positions count from the first letter of the parent shown.

Sample 1
Target: UBE2B UBC core domain (UniProt P63146)
Sequence of UniProt P63146 (whole entry, looked up): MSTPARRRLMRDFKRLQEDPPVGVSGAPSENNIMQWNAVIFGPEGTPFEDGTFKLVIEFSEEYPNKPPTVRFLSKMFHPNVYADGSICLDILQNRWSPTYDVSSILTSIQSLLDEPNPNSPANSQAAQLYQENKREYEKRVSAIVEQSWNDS
Method: yeast two-hybrid
Medium: yeast
Setting: mostly zero background
Relative to: not given
Reading: higher = stronger interaction
B1: VPS8 RING domain (UniProt Q8N3P4); chain TRGLNPKQDYCSICLQQYKRRQEMADEIIVFSCGHLYHSFCLQNKECTVEFEGQTRWTCYKCSSSNKVGKLSE
B2: ZNRF4 RING domain (UniProt Q8WWF5); chain VRTFTWHNDLCAICLDEYEEGDQLKILPCSHTYHCKCIDPWFSQAPRRSCPVCKQSVAATEDSF
B3: RUFY1 RING domain (UniProt Q96T51); chain QALKGHAWLKDDEATHCRQCEKEFSISRRKHHCRNCGHIFCNTCSSNELALPSYPKPVRVCDSCHTLLLQRCSSTAS
B4: HLTF RING domain (UniProt Q14527); chain LILSSGSDEECAICLDSLTVPVITHCAHVFCKPCICQVIQNEQPHAKCPLCRNDIHEDNLLE
B5: MARCHF1 RING domain (UniProt Q8TCQ1); chain TAPRSQSRLSVCPSTQDICRICHCEGDEESPLITPCRCTGTLRFVHQSCLHQWIKSSDTRCCELCKYDFIMETKLKPLRKWE
B6: ARIH2 RING domain (UniProt O95376); chain HVPTSHPPHHCAVCMQFVRKENLLSLACQHQFCRSCWEQHCSVLVKDGVGVGVSCMAQDCPLRTPEDFVF
B7: NFX1 RING domain (UniProt Q12986); chain IEQLTTEKYECMVCCELVRVTAPVWSCQSCYHVFHLNCIKKWARSPASQADGQSGWRCPACQNVSAHVPNTY
B8: TRIM11 RING domain (UniProt Q96F44); chain LSTNLQEEATCAICLDYFTDPVMTDCGHNFCRECIRRCWGQPEGPYACPECRELSPQRNLRP
Molecule	lacZ reporter activity
B1 (VPS8 RING domain)	0
B2 (ZNRF4 RING domain)	0
DDVLTKDAGECVICLEELLQGDTIARLPCLCIYHKSCIDSWFEVNRSCPEHPAD (ZNRF1 RING domain (UniProt Q8ND25))	0
B3 (RUFY1 RING domain)	0
LEALSSDFLACKICLEQLRAPKTLPCLHTYCQDCLAQLADGGRVRCPECRETVPVPPEGV (TRIM56 RING domain (UniProt Q9BRZ2))	0
B4 (HLTF RING domain)	0
EIKEYKARLTCPCCNTRKKDAVLTKCFHVFCFECVRGRYEARQRKCPKCNAAFGAHDFHR (RNF40 RING domain (UniProt O75150))	0
B5 (MARCHF1 RING domain)	0
B6 (ARIH2 RING domain)	0
B7 (NFX1 RING domain)	0
B8 (TRIM11 RING domain)	0

Sample 2
Target: CEBPA, bZIP domain (human)
Method: DHFR protein complementation
Medium: yeast
Setting: single substitutions, most at no-binding floor
Relative to: wild-type JUN-FOS pair
Reading: higher = stronger binding
Parent: JUN, bZIP domain (human); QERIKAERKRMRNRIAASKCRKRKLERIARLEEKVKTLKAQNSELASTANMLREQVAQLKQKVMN; partner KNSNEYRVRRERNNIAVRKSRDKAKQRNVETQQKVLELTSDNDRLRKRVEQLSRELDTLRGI
Change	binding fitness
S43K	-1.34 natural log
K34N	-1.48 natural log
T37W	-1.49 natural log
R30C	-1.4 natural log
T48Y	-1.47 natural log
S47I	-1.46 natural log
K39I	-1.4 natural log
M51D	-1.35 natural log
L59R	-1.53 natural log
Q41G	-1.48 natural log

Sample 3
Target: CCNE1, cyclin fold, Cln2 fusion (human)
Method: yeast growth competition, sequencing
Medium: yeast
Setting: strong parent motif
Relative to: not given
Reading: higher = stronger binding
Parent: DTL docking peptide (human); PSSMRKICTYFHR
Change	normalised enrichment score
PSSMRKICTYAHR [F11A]	0.311
PSSMRKIATYFHR [C8A]	0.297
PSAMRKICTYFHR [S3A]	0.646
PASMRKICTYFHR [S2A]	0.65
PSSMRKACTYFHR [I7A]	0.404
PSSMRKICTYFHA [R13A]	1.19

Sample 4
Target: Histone acetyltransferase KAT6A, winged helix 2, GST fusion (KAT6A, Homo sapiens, UniProt Q92794, residues 85-181)
Method: protein binding microarray
Molecule type: double-stranded DNA, one strand shown
Medium: in vitro
Tested at: not given
Setting: 8-mer, flanks averaged, mean of 2 arrays, mostly near background
Relative to: not given
Reading: higher = stronger binding
Residues (chain): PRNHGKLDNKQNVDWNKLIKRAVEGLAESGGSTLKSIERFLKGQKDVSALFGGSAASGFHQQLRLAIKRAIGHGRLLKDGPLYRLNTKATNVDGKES
Oligonucleotide	E-score
CTAGGGCC	0.00737
AACCAAGT	-0.11
GCCCAAGC	0.185
GGGTCGGA	0.114
ACTGGTGG	-0.142
AACTAAGC	0.122
CAAGATTC	0.0289
GTATGGCA	0.0297
CACTAATG	-0.102
ACCGTCGT	-0.136
CTATACAC	-0.303
CCGACCGC	0.106
CAGGAATC	0.131
TAGATTCA	0.161
CAGTCGAG	-0.0387
ACTGATTA	-0.0401

Sample 5
Target: RING finger protein unkempt homolog, zinc fingers 1-6, SBP tag (UNK, Homo sapiens, UniProt Q9C0B0, residues 30-357)
Sequence of UniProt Q9C0B0 (30-357, looked up): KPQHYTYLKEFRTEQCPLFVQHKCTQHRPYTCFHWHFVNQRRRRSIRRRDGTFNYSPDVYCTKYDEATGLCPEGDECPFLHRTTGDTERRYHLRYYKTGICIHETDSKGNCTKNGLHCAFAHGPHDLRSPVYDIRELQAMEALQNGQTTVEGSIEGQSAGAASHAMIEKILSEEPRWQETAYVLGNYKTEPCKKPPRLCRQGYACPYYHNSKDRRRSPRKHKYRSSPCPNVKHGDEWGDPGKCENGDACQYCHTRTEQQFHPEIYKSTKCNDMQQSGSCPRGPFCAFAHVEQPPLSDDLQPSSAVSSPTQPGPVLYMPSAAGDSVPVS
Method: RNA Bind-n-Seq
Molecule type: RNA
Medium: in vitro
Tested at: 100 nM
Setting: RNA with constant flanks, vertebrate orthologous sites, ends assumed
Relative to: input RNA pool
Reading: higher = stronger binding
Shared flanks, not repeated: GGGAGUUCUACAGUCCGACGAUC … CAACAGAGGAUUGAGCAUCA
Oligonucleotide	bound/input enrichment
GUGUUGGUGCAGAGCAUUCUGUACCAUUGCUCCUCAUCCCUUCUUCAUACCAACUGUCUCUAGUUGUAGGAAUUUAAUAUUUUUUAAAGUUUUACAUUGCUGUAUAUUCAAAGAUUUGUU	0.636 ratio
ACGUAUUUAUACUGGCCAAACAUUUCUGACUUUGUAUUUCUUUGUCCUUUUUUGGUAGUUGGCGUUGUUUCCCCGCACCAUUUUUAUGUCUCCUUCACUGAAGGGCUAGAGUUUUAACUU	0.449 ratio
AUGUUCUUGUUCCUGUGGACUUUAAAAUAGCCACAGAACUUAACUUUUUCCAAAUGAUUCUAGUAAUUGCCUAGAAAUAUCUUUCUCUUCCUGUUAUUUAUCAAUUUUUCCCAGUAUUUU	1.15 ratio
AGCAACCCAAGGAUUCAGGACUGACCUUAUAAAUACACCAAGUAGAUAUGGAACUAACAAUAGAAUUGGACAACCAAGACCUUAGUGUACUCUGUUUUUAUAAGGAAUUUUGACUCCUUG	0.586 ratio
GGGAUAUAUUGAAUAGUAUUAAACAUUUUCGUCUUCCUUUACCUUUUAUCCCUUAAUAUCUAGUCUACUUUUUUAAACUUCAGACUUCAAUGCUCUUUGAAUUGAUAAUUCCAAUUUUCA	0.941 ratio
UUGGGACCAGCUCUCUGAAUAGGAAUAGUAGUAAAAAAAACAAGCAAAAUGAUAUUUGUAUAGAAAAAACAGAAGUCAAAUCAUGUAAAGUAAAUGUUGCCAGUGUUCCAGGCCCUAAAG	1.15 ratio
GACUGGAUGCCGUAUAUACCGCACCCAAGGCAGUGACUUCCACUUUCUACACGUUGUUAGUUUAAAGUCAUCUCUUAUUUCAGCGUCUAGACUGGAUUGUUAGUGCUACUACUCUUUGUA	0.355 ratio
GAUAUUAAAUAGUAUUAAAAAUUUUCAUCUUCCUUUACCUUUUAUCCCCUACCUAAUACCUAGUCUACUUUUUUAAAUUUCAGACUUCACUGCUCUUUGAAUCGAUAAUUCCAAUUUUCA	3.83 ratio
